Measurements gathered from unrelated publications.
A part holds a random share of what one study measured.

Study 1 — method: protein binding microarray; form: double-stranded DNA, one strand shown; sample: in vitro; concentration: not given; reference: not given; direction: higher = stronger binding
Target: Histone acetyltransferase KAT6A, winged helix 2, GST fusion (KAT6A, Homo sapiens, UniProt Q92794, residues 85-181)
Notes: 8-mer, flanks averaged, mean of 2 arrays, mostly near background
Residues (chain): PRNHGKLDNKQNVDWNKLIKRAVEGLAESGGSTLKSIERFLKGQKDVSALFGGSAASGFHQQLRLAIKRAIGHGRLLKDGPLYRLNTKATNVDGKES
Oligonucleotide	E-score
GCAAAGGA	0.0735
ATTTACAC	-0.261
AGACAGAG	0.0573
GTGCCTAA	-0.0884
GATGATAA	0.0918
CATTTAGA	-0.108
CTAATACA	-0.122
AAGCATCC	-0.105
TAAAGTCA	-0.0804
TACATCAA	-0.0115
ACATTTGC	-0.0416
TCAATAGA	-0.155
AGGCTTAT	-0.039
CTAGTCAG	-0.111
ATAGTTCA	0.0155
AGCCTAGG	0.0451
ACCTCTCC	-0.0111
AAGTCTAG	-0.167
GCACTGAC	0.13
GATCTCCA	-0.00682
ATGCAAAT	-0.0985
GACGCCGA	0.148
ATTTCTTC	0.14
AGCCGCTC	0.0908
GGTACACA	-0.00583

Study 2 — method: protein-binding microarray; form: double-stranded DNA, one strand shown; sample: in vitro; concentration: 250 nM; notes: 60-bp whole probe; added: salmon DNA 0.4 mg/ml; reference: random background probes; direction: higher = stronger binding; constant ends, left off below: GCCTAGCAC … GTCTTGATTCGCTTGACGCTGCTG
Target: Interferon regulatory factor 5, full length, phosphomimetic (IRF5, Homo sapiens, UniProt Q13568-2, residues 1-514, K96S/S451D/S453D/S456D/S462D)
Oligonucleotide	log fluorescence
TTCGAACTGGGGTTTCGATTAGTGCTA	6.01 z-score
TTAGGAATCGGGTATCGGTTAGTGCTA	4.97 z-score
GACGGCATCGGACTGGGGACGTGCTAG	-0.616 z-score
TTAGATTTCAGACTGGATGAGTGCTAG	0.34 z-score
GACGGTTTCCTTCTCCTAACGTGCTAG	1.26 z-score
TCATGTGTCAGGTTTACTACTGTGCTA	0.128 z-score
TTAGGACTGGAATATCGGTTAGTGCTA	3.26 z-score
TTAGATTTCGGGACTGGATTTGTGCTA	2.61 z-score
TTAGATTTAGGGTTTCGATTAGTGCTA	4.69 z-score
TTAGGACCGCTTTTCCTTTAGTGCTAG	-0.203 z-score
TTAGGTTCCAGTTTCGGTTAGTGCTAG	10.5 z-score
AGCAAATTATATCTTATATCGTGCTAG	0.729 z-score
TCATTCCTCTCACCTCGGACTGTGCTA	0.576 z-score
GACGATATCTGTCTCGAGACGTGCTAG	0.969 z-score
TCAGGTCTCCTTATCCTTTAGTGCTAG	-0.0966 z-score
GACAGACTGCTACTGCTGACGTGCTAG	-0.343 z-score
GACGGTTTCGGGTTTCGGGGCGTGCTA	7.52 z-score
CTCTTCTTGCATCTGGGTATGTGCTAG	0.334 z-score
CTTTCTCTCTGTGACACAGAGTGCTAG	2.58 z-score
CAGCCAATCAGGACTCAGGGAGTGCTA	-0.482 z-score
TTAGGTTTCGGTTTCGTTTAGTGCTAG	11.4 z-score
TTAGGTTTCGGATTGGGTTAGTGCTAG	6.71 z-score
CCCTTATTCTAGCCTCCATTTGTGCTA	0.623 z-score
CTCTGTTTATGTCTGGGTATGTGCTAG	0.349 z-score
CCCATGCTGGATGAAGTACAGTGCTAG	-0.598 z-score

Study 3 — method: RNA Bind-n-Seq; form: RNA; sample: in vitro; concentration: 200 nM; notes: whole 134-nt RNA, ends assumed; added: 150 mM LiCl; reference: input library; direction: higher = stronger binding; library: 7-deaza-guanosine replaces G
Target: Ras GTPase-activating protein-binding protein 1, full length (G3BP1, Homo sapiens, UniProt Q13283)
Sequence of UniProt Q13283 (whole entry, looked up): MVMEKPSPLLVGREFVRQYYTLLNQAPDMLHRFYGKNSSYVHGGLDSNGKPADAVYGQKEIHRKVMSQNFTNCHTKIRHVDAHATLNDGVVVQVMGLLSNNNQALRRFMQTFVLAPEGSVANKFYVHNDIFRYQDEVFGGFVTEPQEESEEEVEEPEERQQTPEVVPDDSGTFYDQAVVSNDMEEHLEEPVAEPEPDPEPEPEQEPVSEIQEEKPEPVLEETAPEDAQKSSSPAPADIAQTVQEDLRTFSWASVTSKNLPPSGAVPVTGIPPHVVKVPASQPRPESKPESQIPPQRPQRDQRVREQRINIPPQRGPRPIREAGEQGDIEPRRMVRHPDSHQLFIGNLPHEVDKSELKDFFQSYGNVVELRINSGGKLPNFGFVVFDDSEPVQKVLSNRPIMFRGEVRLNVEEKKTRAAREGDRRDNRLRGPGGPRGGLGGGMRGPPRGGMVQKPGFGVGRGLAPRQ
Oligonucleotide	log2 enrichment
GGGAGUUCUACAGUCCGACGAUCCCUCAAGUCCUGUGCUACACAUCGUAUGUACCGAAUCGGGCCGGGCCGGCCGGAAAGUAUUAUGUUACGCCGUUCGGAUCUGCACUUCCAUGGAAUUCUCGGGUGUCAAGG	0.918
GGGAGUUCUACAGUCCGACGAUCGUCCUGUGCUACACAUCGUAUGUACCGAAUCGGGUUUUUUUGGGUUUUUGGGAAAGGGAAAGUAUUAUGUUACGCCGUUCGGAUCUGCACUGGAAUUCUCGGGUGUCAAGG	-0.332
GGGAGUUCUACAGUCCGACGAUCUCCCUAUUCCAGUCAUACACGUGGACCUAACUGCACCAGUAGCUUUUCUGAGAAUACUUGCUGAAAAGGAAGUUUUCUGGAAUGGGUAAGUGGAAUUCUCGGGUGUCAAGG	-0.229
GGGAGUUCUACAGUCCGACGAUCGUCCUGUGCUACACAUCGUAUGUACCGAAUCGGGGAAAAAAGGAAAAAAGGAAAAAAGGAAAGUAUUAUGUUACGCCGUUCGGAUCUGCAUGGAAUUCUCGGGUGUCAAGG	-0.453
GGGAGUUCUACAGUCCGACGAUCACCAUGCAGGUGGGCAUCUUUGGGAAGUGGGGCAAGGGGGGGAUAGGGAGGGGGGUAACACUUUGGGAACAGGUGGUCCCAGGUCGAAACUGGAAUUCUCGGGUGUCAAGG	0.152
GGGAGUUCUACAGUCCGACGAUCUGCGAGGUGGAUUUUGUUUAUUUUUUUAGCUCAUUUCCAGGGGUGGGAAUUUUUUUUUAAUAUGUGUCAUGAAUAAAGUUGUUUUUGAAAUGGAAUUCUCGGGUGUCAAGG	0.202
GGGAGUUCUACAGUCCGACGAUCUUUGCUGAUUUCUGGCUGGCGGAUCAGCUGAACAGCCUGUCAGUGAUACUGAUGGACCUGGAAUAUAUGAUCUGCUUCUACAGUUUGGAGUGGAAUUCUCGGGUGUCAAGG	-3.08
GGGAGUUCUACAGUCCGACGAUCGUCCUGUGCUACACAUCGUAUGUACCGAAUCGGGGUUUUGGGUUUUGGGGUUUUGGGGAAAGUAUUAUGUUACGCCGUUCGGAUCUGCACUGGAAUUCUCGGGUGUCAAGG	0.17
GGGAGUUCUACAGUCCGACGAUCGCAGGAAGUAAAAACAAAUGGAAAUGCUUCGGAUAGUGGCAGGGGUGGGGGUUGCUAAUGAAAGGGUGGGAUGGGAGUGGGUAAAGAGUUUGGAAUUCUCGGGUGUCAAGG	-0.138
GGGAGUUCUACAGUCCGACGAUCUUACAGAUGUAGAGCUAAAACGACUGAAGGAUGCUUUCAAGAGGACCUGUGGACUCUCAUAUUACAUGGGCCAGCACUGCUUCAUCCGGGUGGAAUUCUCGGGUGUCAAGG	1.14
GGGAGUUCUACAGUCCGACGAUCUGGCACUGGUGGCAUGCGGGGAGGAAGAGGUGGCCUCAUGGAUCGUGGUGGUCCCGGUGGAAUGUUCAGAGGUGGCCGUGGUGGAGACAGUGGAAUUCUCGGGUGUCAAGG	-0.132

Study 4 — method: aptamer microarray, sandwich; form: DNA with 2'F-ANA; sample: in vitro; concentration: 200 nM; added: Cy3 exosite-II aptamer, 400 nM; direction: higher = stronger binding; oligonucleotide: GGTTGGTGTGGTTGG
Target: Prothrombin, mature alpha-thrombin (F2, Homo sapiens, UniProt P00734)
Notes: whole 15-mer aptamer, many near background
Modification	mean fluorescence intensity [a.u.]
2'F-ANA at 1 2 5 6 8 9 12 13 15	75.8
2'F-ANA at 1 3 4 7 10 12	86.8
2'F-ANA at 3 4 5 6 9 10 11 12 13 14 15	50.4
2'F-ANA at 2 4 6 7 8 9 10 11 13	67.3
2'F-ANA at 4 5 6 14 15	49.5
2'F-ANA at 1 5 7 10 15	43.5
2'F-ANA at 2 3 8 11 12	990
2'F-ANA at 1 2 4 5 6 7 8 9 10 11 12 14	46.5
2'F-ANA at 1 4 6 7 10 11 13 14	47.6
2'F-ANA at 3 11 12 13	1260
2'F-ANA at 1 4 7 8 10 11 15	58.6
2'F-ANA at 4 5 9 11 13 15	58.3
2'F-ANA at 1 4 5 6 7 8 9 10 12 15	50.4
2'F-ANA at 2 3 4 5 6 7 8 9 11 13 15	59.7
2'F-ANA at 2 3 5 6 8 14 15	59
2'F-ANA at 6 7 8 9 12 14	270

Study 5 — method: RNA Bind-n-Seq; form: RNA; sample: in vitro; concentration: 365 nM; reference: no-protein control; direction: higher = stronger binding
Target: RNA binding protein fox-1 homolog 2, RRM domain, GST-SBP tag (RBFOX2, Homo sapiens, UniProt O43251-10, residues 100-194)
Notes: natural RNA segment, single round, ends assumed
Construct (chain): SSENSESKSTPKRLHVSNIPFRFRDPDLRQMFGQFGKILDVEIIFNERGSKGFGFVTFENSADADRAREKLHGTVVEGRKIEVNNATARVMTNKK
Oligonucleotide	RBNS enrichment (R)
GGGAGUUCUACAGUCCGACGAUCGGAAGGAAGGCCAGGCUAGUUUAGGGCUCAGCGCGUCUCACCAGAGCCCUUCCAUACUCUGUGACUCUCAGUGUGAAUUGGAAUGCAAUUCUUUCCCUAAAAUGUGUGGAUGGAAUUCUCGGGUGCCAA	1.72
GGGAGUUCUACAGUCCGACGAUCGACUUAGGCAAUACACCAAGGGCGAGAUUUUAUAUGCACAUUUCUGGAUUUUUUUAUAUGCUUUUCAUUGAUACCCUUCCCUCCUCCCACCUGCUGCCAGGCCUCACCAAUGGAAUUCUCGGGUGCCAA	0.729
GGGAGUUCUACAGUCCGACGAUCUUCUGAUAUAAACUGUCAAUAUUGCUUUUACCAUGUGUAAGAUUUACUUAGUAAUCACAGAUUUACCUAAAAUAAAAGGACCCGGGUUGCAGUGAUAUUUAGUUAAUGAUUGGAAUUCUCGGGUGCCAA	0.544
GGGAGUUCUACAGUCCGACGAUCAAAGUUAUUUGUGUUCAACUGACAUUUAACGCUCUCUCCCCAACUUCCUCCCGGCCCUGUGGGCCAGGGAGGGGCGUUGGAAACAGCACUUUAUAUUUAUAUAGAACAUUUGGAAUUCUCGGGUGCCAA	0.346
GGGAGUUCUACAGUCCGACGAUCCUGGUGCAGGUCUCCACCUGCACAUUGGGUGGGGCUCCUGGGAGGGAGACUCAGCCUUCCUCCUCAUCCUCCCUGACCCUGCUCCUAGCACCCUGGAGAGUGCACAUGCCUGGAAUUCUCGGGUGCCAA	2.87
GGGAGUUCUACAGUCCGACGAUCCUGUGUAGGUAAAUUUCCGUGAAAUUUUUGUACAAAAAAAAAGGUAAUGAAAGAACGUUGCAAAGAUCAUCUGCAUUAUAAUGAGUUGAUGCUGUUCUCACUCCUCUCUUUGGAAUUCUCGGGUGCCAA	0.757
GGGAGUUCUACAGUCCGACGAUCUGAGUGUCCCGACACCCUCUCGGAUGCAGGGCAGGACCACCCAGCUGGUCAGACUCUGAUGUUGGGUAGCUGGCCUCUGUGGGGAUUGUAAGUGCCCUGAGGCGCUCUGUUGGAAUUCUCGGGUGCCAA	1.41
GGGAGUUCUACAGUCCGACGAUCUUUCUCCCCCCCGCCUGGAUCCUGCCUCGCGCGGGCCGUCCUGUUGCUGAGACUCGGGGUACCGUUCUGCUGACCCAGCUCCCUUUAGUCACGUUUGCUUGGCUCUGGUAUGGAAUUCUCGGGUGCCAA	0.504
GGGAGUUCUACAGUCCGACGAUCGCAAUUCUUCCCAGGGCCCUGUGACCCUGUGUUCCACCCCGACCCCACACUGGACUAGUCUAUGCCUCAUGUGUCCAGCUUCCAUGUUGGACUUCGACCAGCAUCUGAAGUGGAAUUCUCGGGUGCCAA	0.273
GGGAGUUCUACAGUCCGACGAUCUUCUGUGACUGUCUUAGGUGAUGUGUAGCCCCCUCCACCUUUCCACUCAACAACCUCCCACCCCUGUCCUGCUGCAUGGUCCGGAGUCUGGGACCUACUUUGUUUUUUGUUGGAAUUCUCGGGUGCCAA	1.03
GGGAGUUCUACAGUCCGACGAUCUGUCAGCAUCUGUUCUAUCAGUAAGAAAGAGCAGGCAGGACACAUUAAAGGUUCUGUGUCAGCUAUUUUCAUUGCCAAUGAAAUGUAUUCAGUAUUGUAGAUACUAAACCUGGAAUUCUCGGGUGCCAA	0.194
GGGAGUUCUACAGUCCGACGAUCUUUUGUGUGUGUAAUGCAAAUUAGUUAAAACAAAUAGUUUUGGAGAAAGUUAAAACUAGCUUUAGAGUAAGGAUGAGAAACUUGAGUGUUUUUAAUUUAAAGAUAAAAGCUGGAAUUCUCGGGUGCCAA	1.36
